Measured values pooled from the literature.
Parts stem from different laboratories: compare values within a part only.

Set 1
Target: PABPC1L2, full length, GST fusion (mouse, UniProt A0ABA7IW68)
Method: RNAcompete
Molecule type: RNA
Medium: in vitro
Tested at: 20 nM
Notes: 7-mer, probes averaged, single round
Relative to: mean of 7-mers
Direction: higher = stronger binding
Quantity: 7-mer Z-score
Construct (chain): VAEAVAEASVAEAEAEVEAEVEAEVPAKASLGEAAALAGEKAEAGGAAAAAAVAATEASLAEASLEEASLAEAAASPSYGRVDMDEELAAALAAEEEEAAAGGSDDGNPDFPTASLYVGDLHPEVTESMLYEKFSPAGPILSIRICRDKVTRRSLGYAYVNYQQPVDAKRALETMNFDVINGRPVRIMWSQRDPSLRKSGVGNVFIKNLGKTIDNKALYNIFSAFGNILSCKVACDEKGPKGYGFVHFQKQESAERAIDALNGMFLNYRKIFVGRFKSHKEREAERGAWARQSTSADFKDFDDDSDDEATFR
Oligonucleotide = GCAGGAA; result = 0.316
Oligonucleotide = GUAGCAA; result = 0.0533
Oligonucleotide = UCCUGUC; result = -0.405
Oligonucleotide = UGGCCAU; result = -0.273
Oligonucleotide = GUACCCA; result = -0.287

Set 2
Target: Transcriptional repressor CTCF (CTCF, Homo sapiens, UniProt P49711, residues 1-727, full length assumed)
Sequence of UniProt P49711 (whole entry, looked up): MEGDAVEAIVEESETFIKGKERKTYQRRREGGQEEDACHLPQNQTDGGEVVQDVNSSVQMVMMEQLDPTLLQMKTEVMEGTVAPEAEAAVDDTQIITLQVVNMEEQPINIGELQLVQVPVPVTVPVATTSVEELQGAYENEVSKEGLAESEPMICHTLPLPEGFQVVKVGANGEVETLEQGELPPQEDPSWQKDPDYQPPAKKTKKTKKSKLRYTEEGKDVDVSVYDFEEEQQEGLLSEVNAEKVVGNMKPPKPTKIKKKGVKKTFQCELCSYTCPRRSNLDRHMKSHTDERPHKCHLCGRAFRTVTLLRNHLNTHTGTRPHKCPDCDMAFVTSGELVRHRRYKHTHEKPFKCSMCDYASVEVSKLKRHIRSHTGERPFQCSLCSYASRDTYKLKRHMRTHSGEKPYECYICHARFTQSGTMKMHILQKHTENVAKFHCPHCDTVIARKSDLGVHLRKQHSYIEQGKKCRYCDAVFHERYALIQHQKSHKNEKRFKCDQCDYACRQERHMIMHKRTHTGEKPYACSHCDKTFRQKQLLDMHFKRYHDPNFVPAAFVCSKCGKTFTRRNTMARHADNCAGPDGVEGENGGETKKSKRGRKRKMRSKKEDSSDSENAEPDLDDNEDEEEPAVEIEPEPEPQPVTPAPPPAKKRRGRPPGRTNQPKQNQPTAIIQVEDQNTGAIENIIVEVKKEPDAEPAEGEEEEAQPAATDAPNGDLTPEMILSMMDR
Method: protein-binding microarray
Molecule type: double-stranded DNA, one strand shown
Medium: in vitro
Tested at: not given
Notes: k-mer, scored over probes, only values ≥0.25
Direction: higher = stronger binding
Quantity: E-score
Oligonucleotide = CTGTGCGC; result = 0.367
Oligonucleotide = TGGTGTAA; result = 0.264
Oligonucleotide = AAGCGCCA; result = 0.331
Oligonucleotide = TAACACTA; result = 0.302
Oligonucleotide = GCGCAACA; result = 0.278

Set 3
Target: Histone acetyltransferase KAT6A, both winged helices, GST fusion (KAT6A, Homo sapiens, UniProt Q92794, residues 1-181)
Method: protein binding microarray
Molecule type: double-stranded DNA, one strand shown
Medium: in vitro
Tested at: not given
Notes: 8-mer, flanks averaged, mean of 2 arrays, mostly near background
Relative to: not given
Direction: higher = stronger binding
Quantity: E-score
Residues (chain): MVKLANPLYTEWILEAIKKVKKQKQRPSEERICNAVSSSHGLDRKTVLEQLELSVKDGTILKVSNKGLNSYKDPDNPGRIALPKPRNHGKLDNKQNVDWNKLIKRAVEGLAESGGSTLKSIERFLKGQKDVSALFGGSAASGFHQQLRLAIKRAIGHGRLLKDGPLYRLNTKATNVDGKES
Oligonucleotide = ACACTGGA; result = -0.102
Oligonucleotide = GGAAAACA; result = -0.0434
Oligonucleotide = AGCATAGG; result = -0.147
Oligonucleotide = CAGAGAAA; result = -0.0457
Oligonucleotide = TTCAACAA; result = -0.0608
Oligonucleotide = ATGCATAC; result = -0.0726
Oligonucleotide = TTAGGCAA; result = -0.217

Mixed results
Molecule = PhoQ, residues 284 288 289 292 302 303 SCEHLI; target = PhoP, residues 12 14 15 18 19 VQALL (Escherichia coli, UniProt P23836); assay = Sort-seq, refers to: YFP reporter; system = E. coli; conditions = PhoQ-PhoP variant library, with: 10 µM Mg2+; how to read = relative to: high Mg2+ state, higher = stronger signaling; quantity = fold induction; result = 11

For quick reference, copied from above (set 2):
Oligonucleotide = TGGTGTAA; result = 0.264
Oligonucleotide = AAGCGCCA; result = 0.331
Oligonucleotide = TAACACTA; result = 0.302
